Results of several laboratories.
Lines come from different studies, so protocols differ. Values joined by “and” are separate records of one study, mostly repeats; a detail may differ. Numbers after ± are the reported error.

| Molecule | assay | test system | conditions | scale | measurement | result |
| --- | --- | --- | --- | --- | --- | --- |
| COc1ccc2c(c1)c(CC(=O)O)c(C)n2C(=O)c1ccc(Cl)cc1 | multiplex bead immunoassay, measured: IL-12p70 | CD-1 mice, serum | ip, 20 mg/kg, three-injection regimen, added: LPS 3 mg/kg |  | cytokine level | 107 ± 30.8 pg/mL |
| CC1(C)CCC(c2ccc(Cl)cc2)=C(CN2CCN(c3ccc(C(=O)NS(=O)(=O)c4ccc(N[C@H](CCN5CCOCC5)CSc5ccccc5)c(S(=O)(=O)C(F)(F)F)c4)cc3)CC2)C1 | cell kill, PI exclusion flow cytometry | normal CD21+ B lymphocytes, dog, peripheral blood | 24 h |  | EC50 | 1220 ± 1080 nM |
| SIIVFEKL | flow cytometry, measured: CD44hi CD8+ T cells | peptide, OT-I CD8+ T cells, mouse | dose not given, primed 5 days, TGF-β1 from day 2 onward, added: 20 ng/mL TGF-β1 |  | TNF-α only cells | 0.04% |
| CC(=O)Oc1ccccc1C(=O)O |  | rat, FeCl3 carotid thrombosis | oral, 65 µmol/kg, 1 h before injury, 25% ferric chloride | reference: vehicle | thrombus weight decrease | 65% |
| leuprolide | qRT-PCR | men with localised prostate cancer, prostate epithelium | dose not given | reference: untreated men | TMPRSS2 mRNA level | decreased |
| O=C(O)c1ccc(O)c(O)c1 |  | Sprague-Dawley rat, common carotid artery | dose not given, 5 days twice daily, shear-induced thrombosis |  | thrombus protein content | 51 ± 39 µg |
| C=CC(=O)N1C[C@@H]2C[C@H]1CN2S(=O)(=O)c1ccc(N2CC(CN3CCC([C@@](CN4CCC4)(c4cccc(F)c4)[C@H]4CCC[C@@H]4NC(=O)OC)CC3)(OC)C2)cc1 | RT-qPCR, measured: MEIS1 | NCG mouse, MV4-11 luciferase disseminated xenograft, bone marrow human CD45+ cells | oral, 150 mg/kg once daily for 4 days, 48 h after last dose | reference: vehicle | mRNA level | < 2% |
| COc1ccc(-n2c(SC/C(=N/O)c3ccccc3)nnc2-c2nnn(-c3ccc(S(N)(=O)=O)cc3)c2C)cc1 | Griess | phosphate buffer-methanol | 100 µM, 1 h, pH 7.4, 37 °C, added: N-acetylcysteine 0.5 mM | reference: theoretical maximum release | NO released | 2.14% |
| RKVVTDFFKNIPQRI | sandwich ELISA | peptide, peptide-specific T cell line, mouse, culture supernatant | dose not given, 48 h |  | IL-4 secretion | 0.14 ng/mL |
| neuropeptide Y |  | Sprague Dawley rat, urethane-anaesthetised | intravenous, 5 nmol |  | bradycardia-tachycardia crossover time | 4.8 ± 1 min |
| cotadutide | measured: CGM blood glucose | human, type 2 diabetes, CKD | subcutaneous, 50 to 300 µg once daily | reference: baseline | change in average glucose | 2.3 mmol/L |
| O=C(N[C@H]1CCCC[C@@H]1O)[C@H]1CN(Cc2ccc(-n3cccn3)cc2)c2ccccc2O1 | reversal of fear conditioning deficit, contextual fear conditioning | rat | added: risperidone 3 mg/kg |  | minimum effective dose | 1 mg/kg |
| O=C(/C=C/c1cc(O)ccc1O)c1ccc(O)c(O)c1 |  | ethanol | 20 µM, 30 min |  | DPPH scavenging | > 80% |
| CC(C)C[C@H](NC(=O)[C@H](CO)NC(=O)[C@H](CCCNC(=N)N)NC(=O)[C@H](CC(=O)O)NC(=O)[C@H](CCC(=O)O)NC(=O)[C@H](C)NC(=O)[C@@H]1CCCN1C(=O)[C@H](C)NC(=O)[C@H](CCC(=O)O)NC(=O)[C@@H]1CCCN1C(=O)[C@@H]1CCCN1)C(N)=O | measured: tyrosine hydroxylase | rat F344, unilateral 6-OHDA lesion, caudal SNpc | intranasal, dose not given | reference: vehicle | TH+ neuron increase | 44% |
| cilengitide | measured: phospho-Smad3 Ser423/425 | Sprague-Dawley rats, TNBS colitis, colonic muscle cells | ip, 18 mg/kg/day, 42 d |  | Smad3 phosphorylation | inhibited |
| PACAP | qRT-PCR, GAPDH-normalised, measured: RAGE | APP V717I transgenic mouse, 6 months old, brain | intranasal, dose not given, 3 months | reference: vehicle-treated mice | mRNA level | 50.7 ± 7.8% |
| Polymyxin B |  | human whole blood | 500 ng/mL, 4 h, 37 °C, added: E. coli LPS 0.5 ng/mL | reference: LPS without compound | IL-8 release | 40.6 ± 10.5% |
| CC1(C)CC[C@]2(NC(=O)C(C)(F)F)CC[C@]3(C)[C@H](C(=O)C=C4[C@@]5(C)C=C(C#N)C(=O)C(C)(C)[C@@H]5CC[C@]43C)[C@@H]2C1 | IFN-γ ELISPOT | EL4 tumour-bearing mice, spleen | oral, 1 mg/kg daily, 13 days, added: PNT-S peptide pool | reference: untreated | CD8+ T cell response | ~5 fold |

| Molecule | assay | test system | conditions | scale | measurement | result |
| --- | --- | --- | --- | --- | --- | --- |
| CC(C)[C@H](N)C(=O)N[C@@H](Cc1c[nH]cn1)C(=O)N1CCC[C@H]1C(=O)N[C@@H](CCCCN)C(=O)N[C@@H](CCC(N)=O)C(=O)N[C@@H](Cc1c[nH]cn1)C(=O)N[C@@H](CCCNC(=N)N)C(=O)NCC(=O)NCC(=O)N[C@@H](CO)C(=O)N[C@@H](Cc1ccc(O)cc1)C(=O)NCCCC[C@H](NC(=O)[C@H](Cc1ccc(O)cc1)NC(=O)[C@H](CO)NC(=O)CNC(=O)CNC(=O)[C@H](CCCNC(=N)N)NC(=O)[C@H](Cc1c[nH]cn1)NC(=O)[C@H](CCC(N)=O)NC(=O)[C@H](CCCCN)NC(=O)[C@@H]1CCCN1C(=O)[C@H](Cc1c[nH]cn1)NC(=O)[C@@H](N)C(C)C)C(=O)NCCCC[C@H](NC(=O)[C@H](CCCCNC(=O)[C@H](Cc1ccc(O)cc1)NC(=O)[C@H](CO)NC(=O)CNC(=O)CNC(=O)[C@H](CCCNC(=N)N)NC(=O)[C@H](Cc1c[nH]cn1)NC(=O)[C@H](CCC(N)=O)NC(=O)[C@H](CCCCN)NC(=O)[C@@H]1CCCN1C(=O)[C@H](Cc1c[nH]cn1)NC(=O)[C@@H](N)C(C)C)NC(=O)[C@H](Cc1ccc(O)cc1)NC(=O)[C@H](CO)NC(=O)CNC(=O)CNC(=O)[C@H](CCCNC(=N)N)NC(=O)[C@H](Cc1c[nH]cn1)NC(=O)[C@H](CCC(N)=O)NC(=O)[C@H](CCCCN)NC(=O)[C@@H]1CCCN1C(=O)[C@H](Cc1c[nH]cn1)NC(=O)[C@@H](N)C(C)C)C(=O)N[C@@H](CCCCNC(=O)CON=Cc1ccc(F)cc1)C(=O)O [fluorine-18 labelled] |  | mouse myocardial infarction, infarcted myocardium | 5 days after MI, added: VCAM-1 antibody pre-injection |  | infarct to background ratio | 1.4 |
| CCCOc1ccc(S(=O)(=O)NCCC2CCCN2C)cc1-c1nc2c(CCC)nn(C)c2c(=O)[nH]1 (centres unmarked) | peripheral arterial tonometry | human adolescents after Fontan palliation | oral, 87.5 mg twice daily, day 5 | reference: baseline, positive is improvement | change in ln reactive hyperemia index | -0.03 ± 0.2 |
| Cc1ccc(NC(=O)c2ccc(CN3CCN(C)CC3)cc2)cc1Nc1nccc(-c2cncc(-c3oncc3C)c2)n1 |  | mild-to-moderate Parkinson's disease patients | oral, 100 mg once daily, pre-dose baseline, on anti-Parkinson medication | direction not given | PDQ-39 score | 15.3 ± 9.1 |
| COc1ccc2nc([S@@+]([O-])Cc3ncc(C)c(OC)c3C)[nH]c2c1 |  | healthy human | oral, single dose, 40 mg, 12 to 24 h, crossover vs dexlansoprazole MR |  | time with intragastric pH above 4 | 42% |
| COc1c(C=O)c(O)cc2c1C(=O)c1ccccc1C2=O | hapten-induced migration | mouse, ear epidermis | topical, 20 µM, 24 h, added: TNCB | reference: vehicle | Langerhans cell density | increased |
| CC[C@H](C)[C@H](NC(=O)[C@H](CCC(N)=O)NC(=O)[C@H](Cc1c[nH]cn1)NC(=O)[C@H](C)NC(=O)[C@H](CC(C)C)NC(=O)[C@H](CCCCN)NC(=O)[C@H](CCC(N)=O)NC(=O)[C@@H](NC(=O)[C@@H](NC(=O)[C@@H]1CSSC[C@H](NC(=O)CNC(=O)[C@H](Cc2ccccc2)NC(=O)[C@H](CO)NC(=O)[C@H](CCCNC(=N)N)NC(=O)[C@H](CC(C)C)NC(=O)CNC(=O)[C@H](CCC(N)=O)NC(=O)[C@H](Cc2ccccc2)NC(=O)[C@H](CC(N)=O)NC(=O)[C@H](CC(N)=O)NC(=O)[C@H](CCSC)NC(=O)[C@H](CO)NC(=O)[C@H](CCC(N)=O)NC(=O)[C@H](CCCNC(=N)N)NC(=O)[C@@H](N)Cc2ccc(O)cc2)C(=O)N[C@@H](CCCNC(=N)N)C(=O)N[C@@H](Cc2ccccc2)C(=O)NCC(=O)N[C@@H]([C@@H](C)O)C(=O)N1)[C@@H](C)O)C(C)C)C(=O)N[C@@H](Cc1ccc(O)cc1)C(=O)N[C@@H](CCC(N)=O)C(=O)N[C@@H](Cc1ccccc1)C(=O)N[C@H](C(=O)N[C@@H](CC(=O)O)C(=O)N[C@@H](CCCCN)C(=O)N[C@@H](CC(=O)O)C(=O)N[C@@H](CCCCN)C(=O)N[C@@H](CC(=O)O)C(=O)N[C@@H](CC(N)=O)C(=O)N[C@H](C(=O)N[C@@H](C)C(=O)N1CCC[C@H]1C(=O)N[C@@H](CCCNC(=N)N)C(=O)N[C@@H](CO)C(=O)N[C@@H](CCCCN)C(=O)N[C@H](C(=O)N[C@@H](CO)C(=O)N1CCC[C@H]1C(=O)N[C@@H](CCC(N)=O)C(=O)NCC(=O)N[C@@H](Cc1ccc(O)cc1)C(N)=O)[C@@H](C)CC)C(C)C)[C@@H](C)O |  | patients, biologic-resistant Crohn's disease | intravenous infusion, 15 ng/kg/min, 4 weeks, unit not given, added: biologic | reference: baseline | change in CDAI | -64 ± 81 |
| Cc1cn(-c2cc(NC(=O)c3ccc(C)c(Nc4nccc(-c5cccnc5)n4)c3)cc(C(F)(F)F)c2)cn1 |  | human | 150 mg, week 36 follow-up | direction not given | UPDRS I-IV score | 124 and 74 |
| CN(C)C(=O)N[C@H]1CC[C@H](CCN2CCN(c3cccc(Cl)c3Cl)CC2)CC1 | open field | Sprague-Dawley rat, ouabain mania model | intraperitoneal, 1.0 mg/kg, 1 h pretreatment, 30 min observation, added: ouabain i.c.v. |  | locomotor activity | 19.5 ± 8.78 squares crossed |
| SIYNFEKL | flow cytometry, measured: CD44hi CD8+ T cells | peptide, OT-I CD8+ T cells, mouse | dose not given, primed 5 days, restimulated 100 ng/mL OVA257, added: no TGF-β1 |  | cytokine-negative cells | 12.1% |
| NCCCC[C@@H]1NC(=O)[C@@H](Cc2c[nH]c3ccccc23)NC(=O)[C@H](c2ccccc2)NC(=O)[C@@H]2C[C@@H](OC(=O)NCCN)CN2C(=O)[C@H](Cc2ccccc2)NC(=O)[C@H](Cc2ccc(OCc3ccccc3)cc2)NC1=O | GHRH-stimulated GH secretion | healthy volunteers | subcutaneous, 1 µg, median | reference: pre-dose baseline | change in GH AUC(0-2h) | 8.1% |
| CCCCC/C=C\C/C=C\CCCCCCCC(=O)OCC1(C)COC1 |  | mouse | lingual, dose not given, added: linoleic or oleic acid | reference: fatty acid alone | chorda tympani nerve response | increased |
| COc1nc(-c2cc(C)c(N[C@@H](C)c3cc(F)cc(F)c3)nn2)ccc1-n1cnc(C)c1 |  | Macaca fascicularis, plasma | 10 to 200 mg/kg single dose, 4 h |  | maximal Aβ42 and Aβ40 reduction | 60 to 70% |
| Cc1ccc(-c2ncc(Cl)cc2-c2ccc(S(C)(=O)=O)cc2)cn1 | inhibitor | patients after hip surgery, hip drain tissue exudate | dose not given, 24 h observation period |  | PGE2 production | inhibited |
| C[C@H]1C[C@H]2CSC(N)=N[C@@]2(c2nc(NC(=O)c3ccc(OC(F)F)cn3)cs2)CO1 | measured: CSF Aβ1–38 | healthy adults | 125 mg once daily, 14 days, day 15 | reference: placebo-adjusted baseline | change from baseline | -79.5% |
| Nc1nc2c(ccc3ccccc32)s1 | EDHF-type dilation potentiation, pressure myography | mouse, wild type, carotid artery | added: 100 nM acetylcholine |  | EC50 | 93 nM |
| CC(=O)O[C@H]1C(=O)[C@@]2(C)[C@H]([C@H](OC(=O)c3ccccc3)[C@]3(O)C[C@H](OC(=O)[C@H](O)[C@@H](NC(=O)c4ccccc4)c4ccccc4)C(C)=C1C3(C)C)[C@]1(OC(C)=O)CO[C@@H]1C[C@@H]2O |  | rat, DMBA-induced mammary tumour, mammary tumour | 2 mg/kg per week, day 42 | reference: before treatment | tumour size decrease | 81% |
| CS/C(S)=N/CCCC[S+](C)[O-] (racemic) | RT-PCR, measured: Gad2 | rat, liver | oral gavage, 200 mg/kg, 96 h, dosed for four days | reference: vehicle | mRNA fold change | 3.54 |

Excerpt of the above:
| Molecule | assay | test system | conditions | scale | measurement | result |
| --- | --- | --- | --- | --- | --- | --- |
| Nc1nc2c(ccc3ccccc32)s1 | EDHF-type dilation potentiation, pressure myography | mouse, wild type, carotid artery | added: 100 nM acetylcholine |  | EC50 | 93 nM |
| CC(=O)O[C@H]1C(=O)[C@@]2(C)[C@H]([C@H](OC(=O)c3ccccc3)[C@]3(O)C[C@H](OC(=O)[C@H](O)[C@@H](NC(=O)c4ccccc4)c4ccccc4)C(C)=C1C3(C)C)[C@]1(OC(C)=O)CO[C@@H]1C[C@@H]2O |  | rat, DMBA-induced mammary tumour, mammary tumour | 2 mg/kg per week, day 42 | reference: before treatment | tumour size decrease | 81% |
| CS/C(S)=N/CCCC[S+](C)[O-] (racemic) | RT-PCR, measured: Gad2 | rat, liver | oral gavage, 200 mg/kg, 96 h, dosed for four days | reference: vehicle | mRNA fold change | 3.54 |
